Experimental data pooled from the literature.
Parts stem from different laboratories: compare values within a part only. Changes are numbered by the printed parent chain.

Series 1
Target: Sal-like protein 4, full length isoform A (SALL4, Homo sapiens, UniProt Q9UJQ4, residues 1-1053)
Sequence of UniProt Q9UJQ4 (whole entry, looked up): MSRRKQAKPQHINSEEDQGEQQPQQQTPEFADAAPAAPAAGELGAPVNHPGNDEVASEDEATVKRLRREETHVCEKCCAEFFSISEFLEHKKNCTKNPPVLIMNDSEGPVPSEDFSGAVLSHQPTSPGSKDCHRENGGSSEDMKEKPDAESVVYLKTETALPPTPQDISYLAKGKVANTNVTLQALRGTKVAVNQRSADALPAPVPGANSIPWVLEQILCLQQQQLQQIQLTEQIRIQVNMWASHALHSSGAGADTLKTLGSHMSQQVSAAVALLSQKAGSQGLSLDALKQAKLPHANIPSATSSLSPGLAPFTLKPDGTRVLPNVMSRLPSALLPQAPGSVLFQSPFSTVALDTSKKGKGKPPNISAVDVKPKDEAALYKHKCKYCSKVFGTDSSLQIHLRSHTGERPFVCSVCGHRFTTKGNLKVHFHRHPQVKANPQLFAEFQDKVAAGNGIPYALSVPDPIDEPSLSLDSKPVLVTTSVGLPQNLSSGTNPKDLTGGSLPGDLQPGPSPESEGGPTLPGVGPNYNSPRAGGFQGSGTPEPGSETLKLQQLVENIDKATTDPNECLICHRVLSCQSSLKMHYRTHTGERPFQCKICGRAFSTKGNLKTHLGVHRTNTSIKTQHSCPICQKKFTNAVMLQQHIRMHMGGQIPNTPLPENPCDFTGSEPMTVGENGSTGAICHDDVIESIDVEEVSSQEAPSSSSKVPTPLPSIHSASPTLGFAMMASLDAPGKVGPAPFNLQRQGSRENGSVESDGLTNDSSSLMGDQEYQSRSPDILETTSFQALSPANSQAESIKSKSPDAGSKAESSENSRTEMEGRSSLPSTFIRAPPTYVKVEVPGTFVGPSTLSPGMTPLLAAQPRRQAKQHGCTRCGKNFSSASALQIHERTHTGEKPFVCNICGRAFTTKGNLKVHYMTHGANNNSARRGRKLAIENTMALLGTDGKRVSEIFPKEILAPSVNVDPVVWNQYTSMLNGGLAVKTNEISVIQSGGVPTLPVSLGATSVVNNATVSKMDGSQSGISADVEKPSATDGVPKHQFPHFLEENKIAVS
Technique: universal PBM
Molecule type: double-stranded DNA, one strand shown
Matrix: in vitro
Concentration: 600 nM
Notes: 8-mer, flanks averaged, mean of replicates
Direction: higher = stronger binding
Strand | E-score
CCCCTGTA | -0.0826
CCTTACCA | 0.126
ATGAAAAA | 0.305
GATGCTAA | -0.0378
ATTTTGCG | 0.201
AGGAACAT | 0.156
CTCAATCA | 0.0733
GTCGCCAC | -0.254
CATTGACC | 0.126
AAGGCTCT | -0.153
CGTGTGGC | -0.179
ACGAGCGA | 0.0336
AAGATGAC | 0.132
CAACTGCA | 0.0309
AGTTCTGA | 0.121
AGTAATGG | 0.119
AGCTTAGA | 0.0416
GAGCATGA | -0.0263
CGTCTTAG | -0.111
CCCCGAGA | -0.169
AGTAGATG | 0.109
TATCCTGA | 0.175
ACACTCCT | 0.00711
CCACCACG | -0.0758
AAACAAAA | 0.253

Series 2
Target: Ras GTPase-activating protein-binding protein 1, RRM domain (G3BP1, Homo sapiens, UniProt Q13283)
Sequence of UniProt Q13283 (whole entry, looked up): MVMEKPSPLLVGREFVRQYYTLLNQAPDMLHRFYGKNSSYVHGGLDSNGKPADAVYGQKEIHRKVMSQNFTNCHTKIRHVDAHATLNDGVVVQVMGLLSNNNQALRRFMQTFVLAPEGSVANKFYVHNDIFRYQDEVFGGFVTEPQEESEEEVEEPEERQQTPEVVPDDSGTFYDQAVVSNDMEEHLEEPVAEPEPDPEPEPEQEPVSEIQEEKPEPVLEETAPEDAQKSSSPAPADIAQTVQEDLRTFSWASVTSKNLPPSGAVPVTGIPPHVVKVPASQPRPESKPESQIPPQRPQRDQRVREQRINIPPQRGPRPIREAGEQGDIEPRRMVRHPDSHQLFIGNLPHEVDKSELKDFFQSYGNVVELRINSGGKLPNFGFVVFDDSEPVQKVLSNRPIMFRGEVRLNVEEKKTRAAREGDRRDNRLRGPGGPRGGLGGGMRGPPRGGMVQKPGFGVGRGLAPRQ
Technique: RNA Bind-n-Seq
Molecule type: RNA
Matrix: in vitro
Concentration: 1 µM
Notes: whole 134-nt RNA, ends assumed
With: 150 mM KCl
Baseline: input library
Direction: higher = stronger binding
Shared flanks, not repeated: GGGAGUUCUACAGUCCGACGAUC … UGGAAUUCUCGGGUGUCAAGG
Strand | log2 enrichment
GCAGGAAGUGAAAACAAAUGGAAAUGCUUCGGAUAGUGGCAGGGGUGGGGGUUGCUAAGGAAAGGGUGGGAUGGGAGUGGGUAAAGAGUU | 1.68
GCAGGAAGUAAAAACAAAUGGAAAUGCUUCGGAUAGUGGCAGGGGUGGGGGUUGCUAAGGAAAGGGUGGGAAAAGAGUGGGUAAAGAGUU | 1.88
CCUCAAGUCCUGUGCUACACAUCGUAUGUACCGAAUCGGGGUGGGGUGGGUGGAAAGUAUUAUGUUACGCCGUUCGGAUCUGCACUUCCA | 0.186
GCAGGAAGUAAAAACAGAUGGAAAUGCUUCGGAUAGUGGCAGGGGUGGGGGUUGCUAAGGAAAGGGUGGGAUGGGAGUGGGUAAAGAGUU | 0.904
CCUCAAGUCCUGUGCUACACAUCGUAUGUACCGAAUCGGGCGGCGGGGCGGGGAAAGUAUUAUGUUACGCCGUUCGGAUCUGCACUUCCA | 0.251
GUCCUGUGCUACACAUCGUAUGUACCGAAUCGGGUUUUUGGGAAAGGGAAAAAAAGGGAAAGUAUUAUGUUACGCCGUUCGGAUCUGCAC | 0.0877
UGGGAGGUGGAUUUUGUUUAUUUUUUUAGCUCAUUUCCAGGGGUGGGAAUUUUUUUUUAAUAUGUGUCAUGAAUAAAGGUGUUUUUGAAA | 1.24
AAGUCCUGUGCUACACAUCGUAUGUACCGAAUCGGGGUUUUGGUUUUGGGUUUUGGAAAGUAUUAUGUUACGCCGUUCGGAUCUGCACUU | -0.298
UCAGCAACCACCUCAACUCAUUGACUCCGCCAACAUCCGUCAGGAGGAUGCCUUUGAUAACAACAGUGACAUUGCUGAAGAUGGUGGCCA | -0.193
CAAGUCCUGUGCUACACAUCGUAUGUACCGAAUCGGGAAAAAGGGUGGGAAAGGGAAAGUAUUAUGUUACGCCGUUCGGAUCUGCACUUC | 0.812
CCUGUGCUACACAUCGUAUGUACCGAAUCGGGGAAAGGGGUUUUUGGGGAAAAAAAGGGGAAAGUAUUAUGUUACGCCGUUCGGAUCUGC | 0.827
GUCCUGUGCUACACAUCGUAUGUACCGAAUCAAACCCAAAUUUUUAAAUUUUUUUAAAAAAGUAUUAUGUUACGCCGUUCGGAUCUGCAC | -0.911
UAACUUUAGAGCAGGAUCUGAUGGAUAUGGCAGUGGACGUGGAUUUGGGGAUGGCUAUAAUGGGUAUGGAGGAGGACCUGGAGGUGGCAA | -0.801
CUCAAGUCCUGUGCUACACAUCGUAUGUACCGAAUCGGCCGGCCGGGCCGGGGAAAGUAUUAUGUUACGCCGUUCGGAUCUGCACUUCCA | -0.326

Series 3
Target: Sox, HMG box (Pigoraptor chileana)
Technique: Spec-seq
Molecule type: double-stranded DNA, one strand shown
Matrix: in vitro
Concentration: not given
Notes: whole probe, mean of replicates
Baseline: not given
Direction: lower = stronger binding
Shared flanks, not repeated: GAGTCGTCTCGTCAGCAC … CCGTAGAGCACTCAGGTC
Residues (chain): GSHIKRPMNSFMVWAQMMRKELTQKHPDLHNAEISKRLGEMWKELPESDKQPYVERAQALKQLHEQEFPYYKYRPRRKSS
Strand | relative binding energy
AGCTGTT | -0.887 ln ratio
ATTAGTT | -0.135 ln ratio
CATCGTC | 0.628 ln ratio
CATTGGC | 0.0376 ln ratio
AACTGTT | -1.9 ln ratio
GATAGTT | -0.191 ln ratio
AGACGTT | -0.273 ln ratio
CATACGA | 0.157 ln ratio

Series 4
Target: RNA binding protein fox-1 homolog 2, RRM domain, GST-SBP tag (RBFOX2, Homo sapiens, UniProt O43251-10, residues 100-194)
Technique: RNA Bind-n-Seq
Molecule type: RNA
Matrix: in vitro
Concentration: 365 nM
Notes: natural RNA segment, single round, ends assumed
Baseline: no-protein control
Direction: higher = stronger binding
Shared flanks, not repeated: GGGAGUUCUACAGUCCGACGAUC … UGGAAUUCUCGGGUGCCAA
Target sequence (chain): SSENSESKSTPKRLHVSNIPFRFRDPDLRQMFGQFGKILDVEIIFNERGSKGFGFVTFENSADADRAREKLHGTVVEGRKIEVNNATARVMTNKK
Strand | RBNS enrichment (R)
UUAAAGUGUCAGACUAAAUUUUUAGAAGAAAACAGAAAUUCAGGUGUGUGUUCAUUAUAGGUUAUUCAGCAAAGUGGACCCUGACAGUUUCUCGGUUUCCCCAGUGCUGA | 0.75
AAAUAGGCCUACAUCCAAAAUAUUAUCUUGUGACUCCAUGAACCAUUCAUUAACCCUUUGUAUCUUUGAGUGAAAAUUUUACUCAAAAGUUGCAUCUGGAAGUUCGAAGA | 0.266
UGGCAACUGAGAUGGGAUGGAUCCAUUUAAUUAGAGAACGGUGAAAUCUUUCUAGUUGGGCUUUUUGAUUUAUUUUAAAUGGAUAUUGCUCUUUGACUUGGUUUCUUCUU | 0.507
ACCCCCAAGAGAGGUUCGCCAUCCUCUGGCCUCGAGCCCUUGGUCCCUCCGUCCGUCUGUCCUCGGGGCCCGCUCCCCCGGUGGCCCUUGGGGAUCAAAGCGUGGGCCGC | 0.261
UGUGAUUGUGAUUCAUCAUCCCUUAAUUAAAUAUCAAAUUAUAUUUGUGUGAAAAUGUGACAAACACACUUAUCUGUCUCUUCUACAAUUGUGGUUUAUUGAAUGUGAUU | 0.692
CUGUCCUUCCUGGUCAUGCUGGCCUCCGAGGCGCGGGCUGGGAUCUGUCAGGCUGCGUAUUUAUUAAGUUUGGCUAUUCUAUAAAGACUUGUAUAUACUUCCGUGGAAAG | 0.611
UUUAUAACUGAGAUGUACCUAAAUUAUGACCAUUUGGUUUAUGAAUAUUCUACUGUGACAUGAAAAGUUCCUGUAUUUUCAAAAACUUUUCUAUUAAAAUUGAUUUAACU | 0.588
UGGCUUCAGGCCGAGCGUGGAGUAGCUCUGCAGUCUGCAUGAAUCGGCCUUUGAUCUGGCCAAGUCUUAGAGAAUGUUGUAGAUGGGGGUUAAGAGAACCAUUUAAAGUA | 8.62
AGAGUCUCCCCAGACCAAGGUCAGAAAGGAUGCCCAGAGGUUCCAAGAACAGAGCAACAGCAACGGAACGAUGCUUAGAAGCAAAGGAAAGGUCACUGAUGAGUCCGCAA | 0.221
UUGAGCUGGGACUGGCUUGGGGCUUAGAACCAAGAACAGGUAGAAAAUUCCUUAAACAAAGCAUUCCUACAGCGUUUUGCUGGGUGAGAGGAAUCAAACUGGUUCCCUUU | 0.414
CUUUGCCUUCUGUUCUCCUCUCUAGCAUAAGACUUUGGCUUCUGCCUUAAGGUUUUCCUAAGGAAUUAACAGGUCUUUUCAUCUUGUAUAGUUUUUACAGUGUGAAUCCA | 0.228
UCAUGAGUGCCACCUGGUACAGGUAGGUGGCGCUCACGUUCCUGCCCAAAUGCAGCCCAUCGGGGAGUCACAGUCAGUCCCCCCGGCCCCCCUCCCAGUCCCUGUUGGCU | 0.231

Series 5
Target: ABI1, truncated, D143A, DHFR fusion (Arabidopsis thaliana)
Technique: DHFR PCA, deep sequencing
Matrix: yeast
Notes: methotrexate growth selection, single substitutions
With: (+)-ABA 1.4 µM
Baseline: wild-type fitted maximum
Direction: higher = stronger binding
Parent: PYL1, truncated, DHFR fusion (Arabidopsis thaliana); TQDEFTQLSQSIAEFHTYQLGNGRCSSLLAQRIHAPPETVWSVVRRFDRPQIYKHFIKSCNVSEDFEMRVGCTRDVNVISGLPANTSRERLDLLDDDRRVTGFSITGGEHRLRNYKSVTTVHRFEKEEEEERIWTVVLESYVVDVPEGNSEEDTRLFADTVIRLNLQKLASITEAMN; partner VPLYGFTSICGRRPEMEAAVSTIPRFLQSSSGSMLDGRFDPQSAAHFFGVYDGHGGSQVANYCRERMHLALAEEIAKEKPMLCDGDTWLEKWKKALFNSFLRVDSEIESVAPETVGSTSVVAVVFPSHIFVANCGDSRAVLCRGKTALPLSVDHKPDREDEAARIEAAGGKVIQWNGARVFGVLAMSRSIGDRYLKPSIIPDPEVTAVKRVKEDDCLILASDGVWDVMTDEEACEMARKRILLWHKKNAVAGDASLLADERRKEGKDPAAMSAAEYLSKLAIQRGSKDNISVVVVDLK
Change | relative binding score [%]
A30E | 24.5
R49H | 31.6
S26F | -19.1
V137K | -5.57
L29T | 5.01
E89T | -6.76
I12M | 18.3
A35D | 2.48
T39G | 3.66
G108C | 0.81
N177K | 51.6
Q167D | 21.3
E174M | 8.69
C25V | 63.9
L82M | 35.6
